Published values collected from several papers.
Each line is one published result; not all experiments were run side by side. Several values in a cell are separate wells, animals, samples, runs or records. ± marks the error that the study gave.
niaR Y133A: niaR 1-174 Y133A (Streptococcus mutans, UniProt Q8DVX8)
B1: Lqq V toxin, rhodamine on Lys60 (Leiurus quinquestriatus quinquestriatus, UniProt P01481); ends and bridges not checked; also: 125I-labelled, site not given here; rhodamine on Lys60; chain LKDGYIVDDKNCTFFCGRNAYCNDECKKKGGESGYCQWASPYGNACWCYKLPDRVSIKEK(6‑carboxytetramethylrhodamine acetamide)GRCN
Sequence of UniProt P04775 (whole entry, looked up): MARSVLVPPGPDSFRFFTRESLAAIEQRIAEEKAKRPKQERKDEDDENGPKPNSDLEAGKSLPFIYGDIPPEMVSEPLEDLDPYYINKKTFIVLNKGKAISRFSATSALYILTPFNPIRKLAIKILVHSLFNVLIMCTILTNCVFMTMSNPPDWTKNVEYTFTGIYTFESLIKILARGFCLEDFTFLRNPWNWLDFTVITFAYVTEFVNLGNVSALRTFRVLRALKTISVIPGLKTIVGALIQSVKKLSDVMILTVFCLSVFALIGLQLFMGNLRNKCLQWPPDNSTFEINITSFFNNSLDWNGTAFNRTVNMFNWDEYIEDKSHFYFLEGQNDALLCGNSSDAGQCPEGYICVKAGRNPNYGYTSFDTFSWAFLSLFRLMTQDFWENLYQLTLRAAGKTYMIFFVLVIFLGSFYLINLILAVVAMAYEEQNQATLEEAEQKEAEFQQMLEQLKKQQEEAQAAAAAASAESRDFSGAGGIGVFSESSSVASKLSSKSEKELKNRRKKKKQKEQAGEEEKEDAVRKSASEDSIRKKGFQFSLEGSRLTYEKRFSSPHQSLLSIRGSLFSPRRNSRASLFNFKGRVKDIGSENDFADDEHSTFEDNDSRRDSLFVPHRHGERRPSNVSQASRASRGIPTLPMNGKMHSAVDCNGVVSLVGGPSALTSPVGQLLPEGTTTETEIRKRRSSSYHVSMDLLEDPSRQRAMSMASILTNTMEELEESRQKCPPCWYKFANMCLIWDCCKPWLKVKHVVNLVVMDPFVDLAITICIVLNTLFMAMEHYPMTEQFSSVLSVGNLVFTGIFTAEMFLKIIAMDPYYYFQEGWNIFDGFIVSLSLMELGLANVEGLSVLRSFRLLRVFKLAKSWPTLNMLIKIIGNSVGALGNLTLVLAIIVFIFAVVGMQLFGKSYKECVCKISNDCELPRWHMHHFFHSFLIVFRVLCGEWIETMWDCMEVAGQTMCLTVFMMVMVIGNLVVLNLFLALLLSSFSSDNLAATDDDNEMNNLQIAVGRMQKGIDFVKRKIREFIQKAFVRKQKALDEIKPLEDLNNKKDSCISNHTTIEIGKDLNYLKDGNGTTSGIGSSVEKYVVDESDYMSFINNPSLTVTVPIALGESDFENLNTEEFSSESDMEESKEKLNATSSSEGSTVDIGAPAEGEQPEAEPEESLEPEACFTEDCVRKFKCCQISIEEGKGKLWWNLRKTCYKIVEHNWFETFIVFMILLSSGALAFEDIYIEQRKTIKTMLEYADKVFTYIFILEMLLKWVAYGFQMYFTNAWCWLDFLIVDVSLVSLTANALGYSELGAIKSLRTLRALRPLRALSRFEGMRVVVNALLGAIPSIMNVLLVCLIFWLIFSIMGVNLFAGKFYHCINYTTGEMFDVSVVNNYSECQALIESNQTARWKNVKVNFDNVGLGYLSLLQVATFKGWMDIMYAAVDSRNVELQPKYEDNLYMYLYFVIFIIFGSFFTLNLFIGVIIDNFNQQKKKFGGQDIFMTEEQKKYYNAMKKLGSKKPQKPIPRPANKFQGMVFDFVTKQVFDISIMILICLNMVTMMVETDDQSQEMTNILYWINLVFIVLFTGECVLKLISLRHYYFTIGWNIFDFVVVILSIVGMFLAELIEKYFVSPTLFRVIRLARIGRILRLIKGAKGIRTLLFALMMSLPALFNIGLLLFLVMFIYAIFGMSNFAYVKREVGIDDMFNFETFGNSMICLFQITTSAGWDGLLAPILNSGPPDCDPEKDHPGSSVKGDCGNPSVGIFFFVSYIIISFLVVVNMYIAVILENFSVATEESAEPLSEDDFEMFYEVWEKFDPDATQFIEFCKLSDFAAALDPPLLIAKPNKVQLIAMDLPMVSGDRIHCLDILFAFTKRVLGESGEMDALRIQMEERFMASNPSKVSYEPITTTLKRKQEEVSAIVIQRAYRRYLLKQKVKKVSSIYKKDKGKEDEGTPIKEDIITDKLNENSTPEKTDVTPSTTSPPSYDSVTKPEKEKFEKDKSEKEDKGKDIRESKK
Sequence of UniProt P08603 (whole entry, unmodified, looked up): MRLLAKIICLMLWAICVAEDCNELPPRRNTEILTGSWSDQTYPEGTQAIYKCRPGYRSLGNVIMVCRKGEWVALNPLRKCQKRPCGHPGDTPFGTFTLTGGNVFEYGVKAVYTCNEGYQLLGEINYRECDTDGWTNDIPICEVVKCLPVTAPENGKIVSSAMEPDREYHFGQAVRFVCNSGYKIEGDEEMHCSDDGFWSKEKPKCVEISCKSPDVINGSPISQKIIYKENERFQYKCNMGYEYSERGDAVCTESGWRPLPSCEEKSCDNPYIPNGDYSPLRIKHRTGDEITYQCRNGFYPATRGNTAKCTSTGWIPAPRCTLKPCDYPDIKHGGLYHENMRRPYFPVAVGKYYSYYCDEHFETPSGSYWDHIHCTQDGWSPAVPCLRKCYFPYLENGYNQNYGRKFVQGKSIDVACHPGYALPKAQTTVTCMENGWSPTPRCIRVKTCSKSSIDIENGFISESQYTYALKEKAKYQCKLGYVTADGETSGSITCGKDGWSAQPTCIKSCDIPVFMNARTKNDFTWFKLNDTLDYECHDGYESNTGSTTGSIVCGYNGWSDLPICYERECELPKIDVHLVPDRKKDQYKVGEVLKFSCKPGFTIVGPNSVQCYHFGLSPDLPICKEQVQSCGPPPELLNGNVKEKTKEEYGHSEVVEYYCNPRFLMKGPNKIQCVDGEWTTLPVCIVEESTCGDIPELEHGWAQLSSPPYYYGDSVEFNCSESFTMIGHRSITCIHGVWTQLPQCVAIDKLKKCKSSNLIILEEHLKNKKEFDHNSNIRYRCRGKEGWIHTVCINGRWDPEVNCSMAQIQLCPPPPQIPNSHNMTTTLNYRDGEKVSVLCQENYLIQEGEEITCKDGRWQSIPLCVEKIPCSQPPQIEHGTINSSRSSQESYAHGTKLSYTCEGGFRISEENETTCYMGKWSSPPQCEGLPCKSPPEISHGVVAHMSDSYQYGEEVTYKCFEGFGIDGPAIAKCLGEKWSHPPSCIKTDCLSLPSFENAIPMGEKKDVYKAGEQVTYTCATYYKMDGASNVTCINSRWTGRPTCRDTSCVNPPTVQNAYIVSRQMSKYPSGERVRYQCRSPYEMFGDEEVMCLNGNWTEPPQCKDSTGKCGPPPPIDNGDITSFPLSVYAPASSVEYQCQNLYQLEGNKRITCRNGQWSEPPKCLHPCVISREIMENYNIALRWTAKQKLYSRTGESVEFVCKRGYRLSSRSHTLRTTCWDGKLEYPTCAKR

Substance = quinacrine mustard; target or system = Dengue virus type 2; test = viral replication, Rluc reporter replicon; system = BHK-21 with DENV2 replicon; setting = 24 h; quantity = EC50; result = 0.39 ± 0.1 µM
Substance = α-dendrotoxin; target or system = Kv channel (rat); test = radioligand binding, antagonist; quantity = IC50; result = 0.00027 µM
Substance = trehalose dimycolate; test = flow cytometry; system = C57BL/6 mice, lung; setting = intravenous, 100 µg, day 5; how to read = reference: vehicle; quantity = monocyte and immature macrophage increase; result = 21 ± 2.2%
Substance = COc1nc(N)ncc1-c1cn([C@@H]2O[C@](F)(COC(=O)C(C)C)[C@@H](OC(=O)C(C)C)[C@H]2OC(=O)C(C)C)cn1; target or system = Zaire ebolavirus; test = viral replication, reporter virus; system = Huh-7; setting = 72 h; quantity = IC50; result = > 100 µM
Substance = GTCTTTAATAATTAAACTAGTGTCTTGACAGATGTAAACAACAGGTATAAAC (dsDNA); target or system = niaR Y133A; test = EMSA; system = double-stranded DNA, one strand shown; quantity = binding; result = binds
Substance = ILKEPVHGAY; target or system = KIR2DL2− 2DS2− 2DL3+ NK cells; test = NK cell response; system = peptide, human; setting = concentration not given, added: peptide-pulsed RMA-S cells; how to read = reference: no peptide; quantity = relative reactivity; result = 110% and 107% and 97.8%
Substance = VATSRTLSY; system = peptide, tetramer-reactive CD8+ T cells, unexposed HLA-A*02:01 subjects; quantity = number of clonotypes; result = 0
Substance = ILKEPVHGVY; target or system = KIR2DL2+ 2DS2+ 2DL3− NK cells; test = NK cell response; system = peptide, human; setting = concentration not given, added: peptide-pulsed RMA-S cells; how to read = reference: no peptide; quantity = relative reactivity; result = 65.8% and 70.7% and 70.6%
Substance = KRVDWTIEY; system = peptide, tetramer-reactive CD8+ T cells, COVID-19 convalescent HLA-B*07:02 subjects; quantity = number of clonotypes; result = 3
Substance = TFFRLFNRSFTGRRRRSVQWCA; target or system = Streptococcus mutans; test = 2D-DIGE, refers to: hypothetical protein SMU.689; system = peptide, UA159; setting = 20 µg/mL, 1 h; how to read = reference: water control; quantity = protein level ratio; result = -17.5
Substance = cbpA fragment (Streptococcus pneumoniae); target or system = CFH 508-567 (Homo sapiens, UniProt P08603); test = ITC; quantity = ΔH; result = -21.1 ± 0.67 kcal/mol
Substance = EEFEPSTQYEY; system = peptide, tetramer-reactive CD8+ T cells, COVID-19 convalescent HLA-B*07:02 subjects; quantity = number of clonotypes; result = 2
Substance = CC(C)C(=O)Nc1ncncc1-c1cn([C@@H]2O[C@](F)(COC(=O)C(C)C)[C@@H](OC(=O)C(C)C)[C@H]2OC(=O)C(C)C)cn1; target or system = Zaire ebolavirus; test = viral replication, reporter virus; system = Huh-7; setting = 72 h; quantity = IC50; result = > 100 µM
Substance = autoinducing peptide I; target or system = AgrC-I G394A G396A (Staphylococcus aureus); test = reporter gene, agonist; system = Staphylococcus aureus P3-blaZ reporter, Staphylococcus aureus; quantity = EC50; result = > 10 µM
Substance = COc1nc(N)ncc1-c1cn([C@@H]2O[C@](F)(CO[P@@](=O)(N[C@@H](C)C(=O)OC(C)C)Oc3ccccc3)[C@@H](O)[C@H]2O)cn1; target or system = Zaire ebolavirus; test = viral replication, reporter virus; system = Huh-7; setting = 72 h; quantity = IC50; result = > 100 µM
Substance = QLTPTWRVY; system = peptide, tetramer-reactive CD8+ T cells, unexposed HLA-A*02:01 subjects; quantity = number of clonotypes; result = 0
Substance = TTTATAAAAAACCAATATATGTCTTGACACATGTAAAAAACGTTGTATAATG (dsDNA); target or system = niaR Y133A; test = EMSA; system = double-stranded DNA, one strand shown; quantity = binding; result = binds
Substance = B1; target or system = Scn2a whole channel (Rattus norvegicus, UniProt P04775); test = equilibrium binding; system = peptide, rat cortical neurons; quantity = Kd; result = 0.007 µM
Substance = Nc1ncc(-c2cn([C@@H]3O[C@](F)(CO)[C@@H](O)[C@H]3O)cn2)cn1; target or system = Zaire ebolavirus; test = viral replication, reporter virus; system = Huh-7; setting = 72 h; quantity = IC50; result = > 100 µM
Substance = KISEYRHYV; target or system = HN12 (HLA-A2+ HPV+); test = 111In release; system = peptide; setting = concentration not given, 16 h, E:T 25:1 IVS 5, added: peptide-generated T-cell line; quantity = specific lysis; result = 38.4%
Substance = COc1nc(N)ncc1-c1cn([C@@H]2O[C@](F)(CO)[C@@H](O)[C@H]2O)cn1; target or system = Zaire ebolavirus; test = viral replication, reporter virus; system = Huh-7; setting = 72 h; quantity = IC50; result = > 100 µM
Substance = FASEAARVV; test = T cell recognition, HLA-B*07:02 tetramer staining; system = peptide, CD8+ T cells, COVID-19 convalescent human subjects, HLA-B*07:02; setting = dose not given, 5 subjects tested; quantity = tetramer-reactive CD8+ T cell count; result = 2
Substance = GNDGGGGGE; target or system = dog DLA-88*508:01; test = binding, flow cytometry; system = peptide; setting = concentration not given; how to read = reference: control; quantity = MHC stabilization; result = no binding

Repeated from above:
Substance = VATSRTLSY; system = peptide, tetramer-reactive CD8+ T cells, unexposed HLA-A*02:01 subjects; quantity = number of clonotypes; result = 0
Substance = KISEYRHYV; target or system = HN12 (HLA-A2+ HPV+); test = 111In release; system = peptide; setting = concentration not given, 16 h, E:T 25:1 IVS 5, added: peptide-generated T-cell line; quantity = specific lysis; result = 38.4%
Substance = COc1nc(N)ncc1-c1cn([C@@H]2O[C@](F)(CO[P@@](=O)(N[C@@H](C)C(=O)OC(C)C)Oc3ccccc3)[C@@H](O)[C@H]2O)cn1; target or system = Zaire ebolavirus; test = viral replication, reporter virus; system = Huh-7; setting = 72 h; quantity = IC50; result = > 100 µM
